Measurements pooled from the literature.
Parts stem from different laboratories: compare values within a part only. Changes are numbered by the printed parent chain.

Sample 1 — method: universal PBM; molecule type: double-stranded DNA, one strand shown; medium: in vitro; concentration: not given; direction: higher = stronger binding
Target: Sal-like protein 4, full length isoform B (SALL4, Homo sapiens, UniProt Q9UJQ4-2, residues 1-616)
Notes: 8-mer, flanks averaged, mean of replicates
`CCGTTGAC` gave an E-score of -0.176.
With `CAGGTCGG` the E-score was -0.324.
The E-score of `TGGTAACA` is reported as 0.0749.
`ATCGGTCC` gave an E-score of -0.285.
The E-score of `AAGCCTAG` is reported as -0.0159.
For `ATTAAAGG`, the E-score was 0.291.
With `GAAAGGTC` the E-score was -0.0297.
The E-score of `GAGCGTAA` is reported as 0.0845.
The E-score of `ATGACTGC` is reported as 0.162.
`TGTTTTAA` has an E-score of 0.305.
The E-score of `AGTAACTA` is reported as 0.126.
The E-score of `ACTCACAA` is reported as 0.16.
For `AAGCGAAA`, the E-score was 0.0848.
For `AGCCACGG`, the E-score was -0.302.
`GAAAAGTC` gave an E-score of 0.0203.
`AGTGCGAC` has an E-score of -0.144.
The E-score of `CGATACCC` is reported as -0.151.
The E-score of `ACTGTTAA` is reported as 0.18.
`AAGTCTAA` has an E-score of 0.106.
`GCGTGCAA` has an E-score of -0.152.
For `AAACAGCT`, the E-score was -0.0674.
With `CCCGGACG` the E-score was -0.367.
With `AGAATGCG` the E-score was -0.129.
For `GTTATCGA`, the E-score was -0.0223.
`ACTAGTGA` has an E-score of 0.0935.

Sample 2 — method: RNA Bind-n-Seq; molecule type: RNA; medium: in vitro; concentration: 365 nM; baseline: no-protein control; direction: higher = stronger binding
Target: RNA binding protein fox-1 homolog 2, RRM domain, GST-SBP tag (RBFOX2, Homo sapiens, UniProt O43251-10, residues 100-194)
Notes: natural RNA segment, single round, ends assumed
Target sequence (chain): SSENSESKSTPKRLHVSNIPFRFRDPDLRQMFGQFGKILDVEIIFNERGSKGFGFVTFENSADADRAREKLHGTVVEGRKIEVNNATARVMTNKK
`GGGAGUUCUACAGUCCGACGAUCGUCUGGAAUAAAGCCCCCUAGUUGCCUUUGGCCCCACCUUUGCAAAGUUCCAGAGGGCUGACCCUCUCUGCAAAACUCUCCCCUGUCCUCUAGACCCCACCCUGGGUGUAUGGAAUUCUCGGGUGCCAA` — result for “RBNS enrichment (R)”: 0.368.
`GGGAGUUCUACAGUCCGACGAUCGGAAGCAGGUCUCCGCGAGGGGUUUCUUUCCAUGUGUUUUCCUCCUGUUGUUUUAGAACUUUUUUAAAAAAACAGACCUCGUUUUAGAUUUAUAGCAUUGACUUUUACACUGGAAUUCUCGGGUGCCAA` — result for “RBNS enrichment (R)”: 0.821.
Under “RBNS enrichment (R)”, `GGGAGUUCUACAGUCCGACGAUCACACAAGGAGGAUCAGACUUUAAAACUAUCCAUGUGGAUUCUGAGAGCUGCUGCCCAGCAGAAGUCUUAGAAAUAUGCCUUGAAGCAGCCGUUGUGUAAUUAUGAGCUGGUGGAAUUCUCGGGUGCCAA` is recorded as 0.339.
`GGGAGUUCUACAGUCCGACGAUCCCUAUUUCUACUUUUAUUUUGUAUUUCUGGUCUGUGAAAACAAUUUAAUAAAGGGAAAUGACUUUGGAAACGAUGUCCUUAUGUCUCCUUUCCCAAUUUGCAUGUGGUGUUGGAAUUCUCGGGUGCCAA`: “RBNS enrichment (R)” 17.9.
`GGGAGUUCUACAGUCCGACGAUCAUUCAUUAAAUGGCCCUGGCAUACAGCCACACACAGCUGCAAAUCUCAGCCAAAGAGGGAAAGGAAAGGGUCGCUCUUGACUGCUGAGAGCAUAGCUAAUGUACCUGGAAUGGAAUUCUCGGGUGCCAA` — result for “RBNS enrichment (R)”: 0.504.
For `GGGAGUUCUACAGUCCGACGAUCAAGACAACUUUACAUUUAAUGCUUCACUUAAUGAGACAUUCUUUUUUUUAUAAGUCUAUUUUUCUACUCAGUUUCAGAACACUAAUCUGAUUUUCACUCUGAUUUUUAACUGGAAUUCUCGGGUGCCAA`, “RBNS enrichment (R)” read 0.604.
`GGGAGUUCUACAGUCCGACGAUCAAGGAAUACAGCUAAAUAAACCAAGGGGGCUAGGCCCAGUCAGCCAUUGUACAGAGGCCCAGAUUUCUGUAUGUGUCGUGGUCAAUGGCUGGGUUGACAGAGUGGUCUGCUGGAAUUCUCGGGUGCCAA`: “RBNS enrichment (R)” 0.479.
`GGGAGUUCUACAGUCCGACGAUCGCAUUCUCUCCUUACCUGCAGACUAUGCACAGUUCCUGGAGCAGAGGGAGAGGUGGUGUGGCUUGCCCUGCUGAGCCUUCUCGGCAGGAAUAAUAGUAAUAAAUGCACUUUGGAAUUCUCGGGUGCCAA`: “RBNS enrichment (R)” 0.541.
`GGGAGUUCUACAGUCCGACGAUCAUUGGUUUUGUGGGCAGUUUAAUAAACCUGAACCUUUGUGUGUUUUCUAAUUGUACCUGAGUUGACCAUCCUUUCUUUUUAUAGUAUAUUUCUUGUAUGAUAUUUUGUAAUGGAAUUCUCGGGUGCCAA` — result for “RBNS enrichment (R)”: 0.651.
`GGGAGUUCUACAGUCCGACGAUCAAACUAUACUUGUAUUAAAUGUGCUUUUUAAAUAAAAGCUCGUAACACAACUAAUUAAGGACUUGCAGCCUGGAGUGUUUGAGAGAUGUUUGUCUCAGGUGUGUGGGUAGUGGAAUUCUCGGGUGCCAA`: “RBNS enrichment (R)” 0.591.
For `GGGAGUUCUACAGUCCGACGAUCACUACUGUGAUAAAAAUGAACUCAAUAUGUAGUAGCUUAUACUUUUCUCCAGUAUAUUGUUGGUCACUCACAAAUGAUUCAUUUGAACACAUUUUAGGGAUAAGUAAUCAUGGAAUUCUCGGGUGCCAA`, “RBNS enrichment (R)” read 0.376.
For `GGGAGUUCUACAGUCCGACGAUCCAGUUACGUGCCAGACCUGGACCGCAUUCUCCUGCCCUGUCCUGGAGCUGGCCCCUGGCUGCCUGGAGGACCCUGGGUAGGUCCUGAGGGUGGGAUGGAGAAGAGGGCACUGGAAUUCUCGGGUGCCAA`, “RBNS enrichment (R)” read 0.38.

Sample 3 — target: CCND1, cyclin fold, Cln2 fusion (human); method: yeast growth competition, sequencing; medium: yeast; notes: weak parent motif; baseline: not given; direction: higher = stronger binding
Starting sequence: EXO1 docking peptide (human); KPECGRVQRAIFQ; partner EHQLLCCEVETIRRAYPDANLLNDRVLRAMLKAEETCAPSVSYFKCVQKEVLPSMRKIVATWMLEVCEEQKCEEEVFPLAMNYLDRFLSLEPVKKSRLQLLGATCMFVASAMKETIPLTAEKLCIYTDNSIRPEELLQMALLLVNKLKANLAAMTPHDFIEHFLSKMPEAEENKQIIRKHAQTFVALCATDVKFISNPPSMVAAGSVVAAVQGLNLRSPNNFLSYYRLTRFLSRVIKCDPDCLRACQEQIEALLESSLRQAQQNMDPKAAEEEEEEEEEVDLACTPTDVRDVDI
Under “normalised enrichment score”, `KPACGRVQRAIFQ [E3A]` is recorded as 0.0382.
`KPECGAVQRAIFQ [R6A]` — result for “normalised enrichment score”: -0.21.
`KPEAGRVQRAIFQ [C4A]`: “normalised enrichment score” 0.124.
`KPECARVQRAIFQ [G5A]`: “normalised enrichment score” -0.29.
`KPECGRVQRAIAQ [F12A]` — result for “normalised enrichment score”: 0.0967.
Under “normalised enrichment score”, `KPECGRVQRAAFQ [I11A]` is recorded as -0.00257.

Sample 4 — method: protein binding microarray; molecule type: double-stranded DNA, one strand shown; medium: in vitro; concentration: not given; baseline: not given; direction: higher = stronger binding
Target: Histone acetyltransferase KAT6A, both winged helices, GST fusion (KAT6A, Homo sapiens, UniProt Q92794, residues 1-181)
Notes: 8-mer, flanks averaged, mean of 2 arrays, mostly near background
Construct (chain): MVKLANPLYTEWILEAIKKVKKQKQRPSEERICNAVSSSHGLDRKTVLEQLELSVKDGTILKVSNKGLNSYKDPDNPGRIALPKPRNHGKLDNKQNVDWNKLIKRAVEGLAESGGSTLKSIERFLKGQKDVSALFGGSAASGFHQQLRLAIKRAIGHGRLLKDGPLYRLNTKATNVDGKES
`ACCCCAAC` has an E-score of -0.16.
With `GGTATAAA` the E-score was 0.0242.
`CGTGACCC` has an E-score of 0.122.
The E-score of `AGCTTTTA` is reported as 0.0769.
With `TGAGGAAA` the E-score was -0.105.
`GGAATCAC` has an E-score of 0.0314.
With `AGATTGAA` the E-score was -0.0172.
For `CAGAACAC`, the E-score was -0.0746.
For `CCTCCAAA`, the E-score was -0.171.
The E-score of `CAACGGTG` is reported as 0.153.
The E-score of `AGGTCTAC` is reported as -0.0826.
The E-score of `GCACTAAA` is reported as 0.104.
The E-score of `GGTCCTTA` is reported as -0.0285.
With `AATCCTCG` the E-score was -0.249.
`CCGGCCGA` gave an E-score of 0.304.
With `ATTTCAAG` the E-score was -0.117.
`TAGTGATA` gave an E-score of -0.175.
`AGTATTAC` has an E-score of -0.0667.
For `ATCGTTGG`, the E-score was -0.196.
For `AATCGAAG`, the E-score was -0.0115.
The E-score of `AGACCAAA` is reported as -0.0457.
For `CACTTGAG`, the E-score was -0.187.
With `ACCACGTA` the E-score was -0.194.
`GCTTAGAA` has an E-score of -0.00711.
`ATGTTGGA` gave an E-score of -0.114.

Sample 5 — method: DHFR PCA, deep sequencing; medium: yeast; with: (+)-ABA 0.39 µM; baseline: wild-type fitted maximum; direction: higher = stronger binding
Target: ABI1, truncated, D143A, DHFR fusion (Arabidopsis thaliana)
Notes: methotrexate growth selection, single substitutions
Starting sequence: PYL1, truncated, DHFR fusion (Arabidopsis thaliana); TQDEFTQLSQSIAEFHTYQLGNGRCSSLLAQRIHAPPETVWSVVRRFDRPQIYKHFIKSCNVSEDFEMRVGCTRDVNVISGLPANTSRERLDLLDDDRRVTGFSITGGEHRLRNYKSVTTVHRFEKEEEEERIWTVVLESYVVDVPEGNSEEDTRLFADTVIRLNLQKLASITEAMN; partner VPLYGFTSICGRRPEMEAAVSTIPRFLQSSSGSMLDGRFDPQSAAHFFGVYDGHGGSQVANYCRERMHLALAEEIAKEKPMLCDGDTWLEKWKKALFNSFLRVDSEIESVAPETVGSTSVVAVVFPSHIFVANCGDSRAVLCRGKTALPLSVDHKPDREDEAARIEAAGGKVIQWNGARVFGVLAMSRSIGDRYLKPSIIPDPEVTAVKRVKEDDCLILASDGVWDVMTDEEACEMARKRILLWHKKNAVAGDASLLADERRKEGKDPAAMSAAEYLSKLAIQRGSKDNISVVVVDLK
`W134S` — result for “relative binding score”: 59.6%.
Under “relative binding score”, `V121G` is recorded as 2.03%.
`S171E` — result for “relative binding score”: 65.8%.
`W41H` — result for “relative binding score”: -11.5%.
For `R123T`, “relative binding score” read 42.3%.
For `R113K`, “relative binding score” read 67.5%.
Under “relative binding score”, `W134T` is recorded as 61.1%.
`I33R` — result for “relative binding score”: -0.97%.
`R46D` — result for “relative binding score”: -8.08%.
For `V43N`, “relative binding score” read -12%.
`G81K` — result for “relative binding score”: -3.31%.
`F47S` — result for “relative binding score”: 7.85%.
`R90T` — result for “relative binding score”: 20.6%.
`S59H` — result for “relative binding score”: 9.67%.
Under “relative binding score”, `D153C` is recorded as -8.87%.

Sample 6 — method: Sort-seq; item: YFP reporter; medium: E. coli; notes: PhoQ-PhoP variant library; with: 10 µM Mg2+; baseline: high Mg2+ state; direction: higher = stronger signaling
Molecule: PhoQ, residues 284 288 289 292 302 303 ALASRC
For PhoP, residues 12 14 15 18 19 TQCLL (Escherichia coli, UniProt P23836): fold induction read 5.26.
PhoP, residues 12 14 15 18 19 VHTVL (Escherichia coli, UniProt P23836) — fold induction: 7.48.
It gave 8.41 for fold induction (PhoP, residues 12 14 15 18 19 ICWRQ (Escherichia coli, UniProt P23836)).
